Results from different studies.
Compare with care: the assays were run in different laboratories. Numbers after ± are the reported error.
ADRA2A: Alpha-2A adrenergic receptor (ADRA2A, Homo sapiens, UniProt P08913)
APP: Amyloid-beta precursor protein (APP, Homo sapiens, UniProt P05067)
Tubulin alpha-1B chain/TUBB2B: Tubulin alpha-1B chain/TUBB2B (Bos taurus, UniProt P81947+Q6B856)
HDAC2: Histone deacetylase 2 (HDAC2, Homo sapiens, UniProt Q92769)
DIO2: Type II iodothyronine deiodinase (DIO2, Homo sapiens, UniProt Q92813)

Substance	target	assay	system	conditions	how to read	inhibition
CC1N=C(c2ccccc2F)c2cc(N3CCCCC3)ccc2NC1=O (stereo not shown)	ADRA2A	ligand displacement, radioligand	–	10 µM	–	9%
CS(=O)(=O)c1ccc2nc(NC(=O)CCN3CCN(c4ncccn4)CC3)sc2c1	APP	amyloid aggregation, inhibitor, fluorescence	–	50 µM	–	53.7%
Cc1cc(=O)c(O)c(C(=O)O)o1	Metallo-beta-lactamase type 2 (blaNDM-1, Klebsiella pneumoniae, UniProt C7C422)	–	–	200 µM	–	12%
COc1ccc(Nc2ccc3c(c2)C(c2ccccc2F)=NC(C)C(=O)N3)cc1 (stereo not shown)	ADRA2A	ligand displacement, radioligand	–	10 µM	–	70%
COc1cccc2c1C(=O)c1c(O)c3c(c(O)c1C2=O)C[C@@](O)(C(C)=O)C[C@@H]3O[C@H]1C[C@H](N)[C@H](O)[C@H](C)O1	Organic cation/carnitine transporter 2 (SLC22A5, Homo sapiens, UniProt O76082)	transporter uptake, inhibitor	–	1.5 mM	–	66.4%
Cc1ccc2c(c1)CCN(C(=O)[C@@H](NC(=O)[C@H](CCCC(=O)O)NC(=O)[C@@H]1Cc3ccccc3N1)C(C)C)[C@@H]2C(=O)N[C@H](C#N)CC(=O)O	Caspase-2 (Homo sapiens, UniProt P42575)	enzyme activity, inhibitor	–	10 µM	–	96%
Cc1ccc(N2CCN(CCC(=O)Nc3nc4ccc(S(C)(=O)=O)cc4s3)CC2)cc1	APP	amyloid aggregation, inhibitor, fluorescence	–	50 µM	–	54.4%
COc1ccc(C[C@H]2NC(=O)/C=C/C[C@@H]([C@H](C)[C@H]3O[C@@H]3c3ccccc3)OC(=O)[C@H](CC(C)C)OC(=O)[C@H](C)CNC2=O)cc1Cl	Tubulin alpha-1B chain/TUBB2B	[3H]DZA binding	–	30 µM, 1.5 h preincubation, pH 6.9, together with: [3H]DZA 4.0 µM	–	59 ± 4%
O=C(Nc1ccccc1)c1coc(-c2ccccc2O)n1	HDAC2	enzyme activity, inhibitor	–	20 µM	–	30%
CS(=O)(=O)c1ccc2nc(NC(=O)CCN3CCN(c4ccc([N+](=O)[O-])cc4)CC3)sc2c1	APP	amyloid aggregation, inhibitor, fluorescence	–	50 µM	–	54.3%
O=C(O)C(=O)CBr	Sodium-coupled monocarboxylate transporter 1 (Rattus norvegicus, UniProt D3Z9E5)	nicotinate uptake	HRPE expressing Sodium-coupled monocarboxylate transporter 1	1 mM, 15 min, rat, together with: [14C]nicotinate 15 µM	–	97%
CC1N=C(c2ccccc2F)c2cc(NCc3ccccc3)ccc2NC1=O (stereo not shown)	ADRA2A	ligand displacement, radioligand	–	10 µM	–	15%
O=C(O)c1ccc(CNC(=O)c2coc(-c3ccccc3O)n2)cc1	HDAC2	enzyme activity, inhibitor	–	20 µM	–	≥ 50%
CS(=O)(=O)c1ccc2nc(NC(=O)CCN3CCN(Cc4ccccc4)CC3)sc2c1	APP	amyloid aggregation, inhibitor, fluorescence	–	50 µM	–	53.4%
C=C(Cl)/C=C/[C@@H](O)C(C)C(=C)C[C@H]1O[C@@H]2[C@H](C)[C@@H](OC(=O)C[C@H]3C[C@H](OC(C)=O)C[C@@]4(C[C@@](C)(O)C[C@H](CC(=C)[C@@H](C)[C@H](OC(C)=O)[C@H](C)C(=O)C[C@@H]5C[C@H](OC)C[C@@]6(C[C@@H](O)C[C@H](/C=C\CCC[C@H]7O[C@](O)(C[C@H](O)[C@H]7C)[C@H]2O)C6)O5)O4)O3)[C@@H]1O (stereo partly shown)	Tubulin alpha-1B chain/TUBB2B	[3H]DZA binding	–	30 µM, 1.5 h preincubation, pH 6.9, together with: [3H]DZA 4.0 µM	–	21 ± 7%
O=C(N[C@@H](Cn1ccnc1)c1c(F)cc(-c2ccc(F)cc2)cc1F)c1ccc(-c2nnc(-c3ccccc3)o2)cc1	Putative lanosterol 14-alpha-demethylase (Leishmania infantum, UniProt A2TEF2)	enzyme activity, inhibitor	–	equimolar to enzyme, 1 h, Leishmania infantum CYP51, together with: obtusifoliol 50 µM	–	inhibited
CS(=O)(=O)c1ccc2nc(NC(=O)CCN3CCN(Cc4ccc5c(c4)OCO5)CC3)sc2c1	APP	amyloid aggregation, inhibitor, fluorescence	–	50 µM	–	45.3%
O=Cc1cc(O)c(O)cc1O	1-deoxy-D-xylulose-5-phosphate synthase (dxs, Escherichia coli, UniProt P77488)	inhibitor	–	–	inactive up to value	> 75 µM
CC1N=C(c2ccccc2F)c2cc(Nc3ccc(C(F)(F)F)cc3)ccc2NC1=O (stereo not shown)	ADRA2A	ligand displacement, radioligand	–	10 µM	–	60%

Substance	target	assay	system	conditions	how to read	inhibition
O=C(NC(C(=O)O)c1ccccc1)c1ccc(=O)n(O)c1 (stereo not shown)	Metallo-beta-lactamase VIM-2 (VIM-2, Escherichia coli, UniProt Q5U7L7)	enzyme activity, inhibitor	–	50 µM	–	12%
CC1N=C(c2ccccc2F)c2cc(Nc3cccc(C#N)c3)ccc2NC1=O (stereo not shown)	ADRA2A	ligand displacement, radioligand	–	10 µM	–	< 50%
anabaenopeptin 908	Carboxypeptidase A1 (CPA1, Bos taurus, UniProt P00730)	enzyme activity, inhibitor	–	up to 20 µg/mL, pH 7.5, together with: hippuryl-L-phenylalanine 1 mM	–	inactive
Brc1ccc(Oc2cc(Br)c(Br)cc2Br)c(Br)c1	DIO2	–	H4 glioma	500 nM, 6 h	reference: untreated	78.6 ± 3.9%
CC1N=C(c2ccccc2F)c2cc(N(C)c3ccccc3)ccc2NC1=O (stereo not shown)	ADRA2A	ligand displacement, radioligand	–	10 µM	–	48%
CCCCCCCCCCCCCCCc1cccc(O)c1C(=O)O	Histone acetyltransferase p300 (EP300, Homo sapiens, UniProt Q09472)	enzyme activity, inhibitor, radiometric	–	200 µM	–	≤ 35%
CC1N=C(c2ccccc2F)c2cc(Nc3ccc(S(C)(=O)=O)cc3)ccc2NC1=O (stereo not shown)	ADRA2A	ligand displacement, radioligand	–	10 µM	–	10%
O=C(NCCCCNC(=S)NCCC(c1ccccc1)c1ccccc1)c1coc(-c2ccccc2O)n1	HDAC2	enzyme activity, inhibitor	–	20 µM	–	1%
CN(C)C/C=C/C(=O)Nc1cccc(C(=O)Nc2ccc(Nc3nccc(-c4cccnc4)n3)cc2)c1	Mitogen-activated protein kinase 14 (MAPK14, Homo sapiens, UniProt Q16539)	–	A-375	1 µM	–	16.4%
CS(=O)(=O)c1ccc2nc(NC(=O)CCN3CCN(C(=O)c4ccco4)CC3)sc2c1	APP	amyloid aggregation, inhibitor, fluorescence	–	50 µM	–	54.5%
Cc1cc(CC2(Cc3ccnc(C)c3)c3ccccc3C(=O)c3ccccc32)ccn1	Voltage-gated potassium channel, KQT; KCNQ2(Kv7.2)/KCNQ3(Kv7.3) (KCNQ3/KCNQ2, Homo sapiens, UniProt O43525+O43526)	potassium current, inhibitor, manual patch clamp	tsA201 (transfected)	1.5 µM	–	inhibited
CS(=O)(=O)c1ccc2nc(NC(=O)CCN3CCN(c4ccccn4)CC3)sc2c1	APP	self-induced aggregation, thioflavin-T fluorescence	–	50 µM, 48 h, together with: APP 50 µM	–	53.3 ± 0.541%
Oc1cc(Oc2cc(Br)c(Br)cc2Br)c(Br)cc1Br	DIO2	–	H4 glioma	500 nM, 6 h, together with: 10 µM MG132 + 100 µM cycloheximide	reference: MG132 + cycloheximide	15 ± 5.3%
Cl.Cl.Fc1ccc(C(OCCN2CCN(CCCc3ccccc3)CC2)c2ccc(F)cc2)cc1	Sodium channel protein type 10 subunit alpha (SCN10A, Homo sapiens, UniProt Q9Y5Y9)	sodium influx, inhibitor, FLIPR	HEK293	10 µM, together with: deltamethrin 10 µM	–	87%
CS(=O)(=O)c1ccc2nc(NC(=O)CCN3CCN(C(c4ccccc4)c4ccccc4)CC3)sc2c1	APP	amyloid aggregation, inhibitor, fluorescence	–	50 µM	–	52.2%
C=C1C[C@@H]2CC[C@@]34C[C@H]5O[C@H]6[C@@H](O3)[C@H]3O[C@H](CC[C@@H]3O[C@H]6[C@H]5O4)CC(=O)O[C@@H]3[C@@H](C)[C@@H]4O[C@@H]5C[C@]6(C[C@@H]7O[C@]8(C[C@H](C)[C@@H]9O[C@H]([C@@H](O)C[C@@H](O)CO)C[C@@H]9O8)C[C@H](C)[C@@H]7O6)O[C@@H]5C[C@@H]4O[C@H]3C[C@H]3O[C@@H](CC[C@@H]1O2)C[C@@H](C)C3=C	Tubulin alpha-1B chain/TUBB2B	[3H]DZA binding	–	30 µM, 1.5 h preincubation, pH 6.9, together with: [3H]DZA 4.0 µM	–	23 ± 6%
CCc1ccccc1Nc1ccc2c(c1)C(c1ccccc1F)=NC(C)C(=O)N2 (stereo not shown)	ADRA2A	ligand displacement, radioligand	–	10 µM	–	4%
CC12CC3CC1(C)C1(C)CC3(CN)CC21C.Cl	Glutamate NMDA receptor; Grin1/Grin2a (Grin1/Grin2a, Rattus norvegicus, UniProt P35439+Q00959)	NMDA-evoked current, channel blocker, whole-cell patch clamp	tsA201 cells	10 µM, holding potential -60 mV, together with: 100 µM NMDA plus 10 µM glycine	–	88.3 ± 3.7%

Repeated from above:
Substance	target	assay	system	conditions	how to read	inhibition
CS(=O)(=O)c1ccc2nc(NC(=O)CCN3CCN(c4ccc([N+](=O)[O-])cc4)CC3)sc2c1	APP	amyloid aggregation, inhibitor, fluorescence	–	50 µM	–	54.3%
O=C(O)C(=O)CBr	Sodium-coupled monocarboxylate transporter 1 (Rattus norvegicus, UniProt D3Z9E5)	nicotinate uptake	HRPE expressing Sodium-coupled monocarboxylate transporter 1	1 mM, 15 min, rat, together with: [14C]nicotinate 15 µM	–	97%
CC1N=C(c2ccccc2F)c2cc(NCc3ccccc3)ccc2NC1=O (stereo not shown)	ADRA2A	ligand displacement, radioligand	–	10 µM	–	15%
O=C(O)c1ccc(CNC(=O)c2coc(-c3ccccc3O)n2)cc1	HDAC2	enzyme activity, inhibitor	–	20 µM	–	≥ 50%
CS(=O)(=O)c1ccc2nc(NC(=O)CCN3CCN(Cc4ccccc4)CC3)sc2c1	APP	amyloid aggregation, inhibitor, fluorescence	–	50 µM	–	53.4%
